Results of several laboratories.
Each line is one published result; not all experiments were run side by side. ± marks the error that the study gave.
UniProt P37136, sequence (whole entry, looked up): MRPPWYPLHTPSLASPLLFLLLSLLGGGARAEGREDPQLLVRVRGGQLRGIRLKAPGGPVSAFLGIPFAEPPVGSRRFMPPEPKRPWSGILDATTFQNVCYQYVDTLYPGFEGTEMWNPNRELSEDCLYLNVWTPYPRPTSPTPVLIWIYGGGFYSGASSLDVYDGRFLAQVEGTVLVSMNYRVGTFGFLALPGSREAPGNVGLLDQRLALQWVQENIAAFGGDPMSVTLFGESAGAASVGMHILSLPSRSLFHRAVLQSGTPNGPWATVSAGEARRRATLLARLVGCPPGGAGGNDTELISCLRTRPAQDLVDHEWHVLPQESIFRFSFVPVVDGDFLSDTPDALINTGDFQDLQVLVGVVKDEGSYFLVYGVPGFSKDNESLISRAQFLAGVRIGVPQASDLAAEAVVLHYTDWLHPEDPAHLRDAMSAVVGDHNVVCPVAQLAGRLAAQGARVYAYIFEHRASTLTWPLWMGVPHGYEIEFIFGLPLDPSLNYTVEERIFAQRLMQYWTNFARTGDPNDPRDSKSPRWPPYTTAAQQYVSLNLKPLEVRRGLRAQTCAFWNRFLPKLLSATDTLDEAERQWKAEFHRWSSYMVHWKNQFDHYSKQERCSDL

chicoric acid  Papp basolateral to apical (IPEC-J2 monolayer; 500 µM, monolayer cultured 14 d): 0.382 ± 0.061 ×10⁻⁶ cm/s
deucravacitinib  dizziness incidence (human; 6 mg twice daily, multiple dose): 0%
phoxim-oxon  IC50 (Ache (Rattus norvegicus, UniProt P37136); enzyme activity, inhibitor, Ellman; rat, postnatal day 70, heart homogenate; 15 min, 37 °C): 8 nM
maraviroc  C12 (white CYP3A5 poor metabolizers, plasma; 300 mg twice daily): 63.1 ng/mL
semaglutide  participants with adverse events (item: serious adverse events; human, safety analysis set; concentration not given, 32 weeks, run-in): 2.1%

A few entries again:
chicoric acid  Papp basolateral to apical (IPEC-J2 monolayer; 500 µM, monolayer cultured 14 d): 0.382 ± 0.061 ×10⁻⁶ cm/s
